Experimental data of several laboratories.
Protocols differ between the studies behind these lines. “And” joins repeats or separate records; there may be more than shown.
Target: Casein kinase I isoform gamma-1 (CSNK1G1, Homo sapiens, UniProt Q9HCP0)

The inhibition of `CN1CC[C@@H](COc2cnc(C#N)cc2-c2ccn3nc(NC(=O)C4CC4)cc3c2)C1` is reported as -6% (enzyme activity, inhibitor; 1 µM).
With `COCC12C(=O)NC3C4(C(OC)CC1O)C1CC5(O)C(OC)C(O)C(OC(C)=O)(C1C5OC(=O)c1ccccc1)C3(O)C(OC)C24` (stereo not shown) the remaining activity was 93% and 106% (kinase activity, inhibitor, ProQinase kinase profiling; 25 µM; relative to: control).
`NC(=O)[C@@H](O)C[C@H]1CCc2sc3ncnc(O[C@H]4CC[C@H](N5CCOCC5)CC4)c3c21` gave an inhibition of 4% (enzyme activity, inhibitor; 10 µM).
`COc1cc(Nc2nccc(-c3cnn4nc(OC)ccc34)n2)cc(C(F)(F)F)c1` has a remaining binding of 100% (binding, competition with immobilised ligand; 1 µM).
`Cc1nc2c(F)cc(-c3nc(Nc4ccc(CNC(=O)CCCCCCC(=O)NO)cc4)ncc3F)cc2n1C(C)C` gave an inhibition of 27% (enzyme activity, inhibitor; 1 µM).
The remaining binding of `COc1c(Cl)cccc1Nc1c(-c2ccncc2C#C[C@@]2(C)CCCN2C(=O)/C=C/CN(C)C)[nH]c2c1C(=O)NCC2` is reported as 76% (cell-free assay, competition with immobilised ligand; 3 µM).
With `C=CC(=O)Nc1cccc(-c2cnc3[nH]cc(C(=O)NC(C)(C)C)c3n2)c1` the inhibition was 9% and 5% (kinase activity; 0.1 µM).
`CCn1cc(C(=O)O)c(=O)c2c(N)c(F)c(NC3CCCCC3)cc21` has an inhibition of 1.8% (kinase activity; 0.1 µM, with: ATP at Km).
With `COc1ccc(NC(=O)Nc2ccc3c(c2)C(=O)N(C(C)CO)CC(C)C(CN(C)Cc2ccc4c(c2)OCO4)O3)cc1` (stereo not shown) the remaining activity was 104% (kinase activity, KinaseProfiler; 0.03 µM, species human; relative to: control).
`CN1CCN(Cc2ccc(-c3ccc(CO[C@H]4CCC[C@@H]4NC(=O)c4cc(-c5cnn(C)c5)cnc4N)cc3)cc2)CC1` has an inhibition of 11% (enzyme activity, inhibitor; 0.1 µM).
The remaining binding of `CCN1CCN(Cc2ccc(C(=O)Nc3ccc(C)c(NCc4cnc5[nH]ccc5c4OC)c3)cc2C(F)(F)F)CC1` is reported as 89% (binding, competition with immobilised ligand; 1 µM).
The inhibition of `Cc1cccc(O[C@H]2CCC[C@@H](C(C)CNCc3ccncc3)C2)c1` (relative stereo) is reported as -3% (kinase activity, kinome panel screening; 1 µM).
`Cc1ccc(-c2c(/C=C(\C#N)C(=O)NC(C)C)n(CCCO)c3ncnc(N)c23)cc1` gave a remaining binding of 100% (cell-free assay, competition with immobilised ligand; 1 µM).
`O=C=[N][Ru-4]123([n]4c5ccc(O)cc5c5c6c(c7cc(F)c[n+]1c7c54)C(=O)NC6=O)[S+]1CC[S+]2CC[S+]3CC1` (stereo not shown) gave a remaining activity of 66% (enzyme activity; 100 nM, human enzyme, with: 10 µM ATP; relative to: untreated).
Under “percent of control”, `Cc1cnc2nc1Nc1cccc(c1)COC/C=C/COCc1cc(ccc1OCCN1CCOCC1)N2` is recorded as 86% (concentration not given).
For `CC(C)=CC1OC(C)(C)C2C=C3C(=O)C(Cl)=CC(O)C3C3C(O)C4OC4C(=O)C132` (stereo not shown), the remaining binding was 94% (cell-free assay, competition with immobilised ligand; 10 µM).

For quick reference, copied from above:
With `C=CC(=O)Nc1cccc(-c2cnc3[nH]cc(C(=O)NC(C)(C)C)c3n2)c1` the inhibition was 9% and 5% (kinase activity; 0.1 µM).
`CCn1cc(C(=O)O)c(=O)c2c(N)c(F)c(NC3CCCCC3)cc21` has an inhibition of 1.8% (kinase activity; 0.1 µM, with: ATP at Km).
